Published values from different studies.
Each line is one published result; not all experiments were run side by side. ± gives the spread as reported.

S=C(Nc1ccccc1)c1cccc(C(=S)Nc2ccccc2)n1 — inhibition (HFF; cell growth or viability; 12.5 µM, 96 h): < 50%
O=C(O)CCC(NP(=O)(O)OCCC[C@@H](NC(=O)CC[C@H](NC(=O)CCCCCNC(=O)c1ccc([18F])cc1)C(=O)O)C(=O)O)C(=O)O (stereo partly drawn) — uptake ratio (LNCaP, CWR22Rv1; concentration not given, 4 h; relative to: LNCaP over CWR22Rv1): 6.6 fold
Cc1ccc(C(C)C)cc1.Oc1ccccc1C=NNC1=Nc2ccccc2-c2[nH]c3ccc(Br)cc3c2C1.[Cl-].[Cl][Os+] — apoptotic cells (SW480; annexin V/PI flow cytometry; 20 µM, early plus late apoptosis): 57%
CC(=O)OC[C@H]1O[C@@H](Sc2sc(C(=O)c3ccc(Br)cc3)c(N)c2-c2nc3ccccc3s2)[C@H](OC(C)=O)[C@@H](OC(C)=O)[C@@H]1OC(C)=O — growth (NCI-H226; SRB; 10 µM, 48 h; relative to: untreated): 28.1%
COc1ccc(NC(=O)COc2ccc(/C=C/C(C)=N/O)cc2OC)cc1 — cells expressing IL-1β (SH-SY5Y; flow cytometry; 10 µM, added: amyloid-β 10 µM): 26%
COc1cc(CNC(=O)C[C@H](C)CCC=C(C)C)ccc1OCc1cn(-c2ccc(Cl)cc2Cl)nn1 — growth percent (K562 leukaemia cells; SRB; 10 µM, 48 h): 81.4%
COc1ccc2occ(/C=C/C(=O)N3CCN(C(=S)SCCN(C)C)CC3)c(=O)c2c1 — protective effect (tomato spotted wilt virus; viral infection, half-leaf method; Nicotiana glutinosa; 500 µg/mL): 59.4 ± 2.1%
Cc1ccc(NC(=O)c2c(C)oc3ccc(O)c(CN4CCCCCC4)c23)cc1 — MYC protein level (CA46; concentration not given): no effect
O=Cc1c(O)ccc2ccccc12 — log2 fold change (HUVEC; RNA sequencing, item: GIMAP7; 75 µM, 24 h; relative to: DMSO): -3.08
CN1C(=O)[C@@H](Cc2ccc(O)cc2)NC(=O)CNC(=O)[C@H](Cc2ccc3ccccc3c2)NC(=O)[C@H](CCCNC(=N)N)NC(=O)[C@H]1CCCNC(=O)c1ccc(CNC(=O)CN2CCN(CC(=O)O)CCN(CC(=O)O)CCN(CC(=O)O)CC2)cc1 [gallium-68 labelled] — absorbed dose coefficient (extrapolated to adult male; C57BL/6 mice, liver): 0.0212 ± 0.0075 mGy/MBq
COc1ccc2c(c1)/C(=N\Nc1nnc3n1N=C(c1ccccc1)CS3)C(=O)N2 — inhibition (SF-295; cell growth or viability, SRB; 10 µM): 12%
CN(C)CCCSC(=S)N1CCN(C(=O)/C=C/c2coc3cc(F)ccc3c2=O)CC1 — curative effect (tomato spotted wilt virus; viral infection, half-leaf method; Nicotiana glutinosa; 500 µg/mL): 62.7 ± 3.8%
COc1cc(CNC(=O)C[C@H](C)CCC=C(C)C)ccc1OCc1cn(-c2ccc([N+](=O)[O-])cc2)nn1 — growth percent (UACC-62 melanoma cells; SRB; 10 µM, 48 h): 53.5%
CC/C=C\C/C=C\C/C=C\C/C=C\C/C=C\C/C=C\CCC(=O)Nc1ccn(C2OC(CO)C(O)C2(F)F)c(=O)n1 (stereo not drawn) — TGI (SF-295; NCI60 screen): 10.9 µM
Cn1cncn1.[Ru+2].c1cc(-c2ccc3ccccc3n2)nc(-c2ccc3ccccc3n2)c1.c1ccc2cc3nc4c5cccnc5c5ncccc5c4nc3cc2c1 — phototherapeutic index (L929; MTT; relative to: dark EC50 over light EC50): 14
COc1cc2c(C=C3C(=O)Nc4ccccc43)c[nH]c2cc1C — TGI (NCI-60 panel mean; 48 h): 6.46 µM
O=C(c1ccncc1)N1N=C2/C(=C/c3ccc(Cl)cc3)CCCC2C1c1ccc(Cl)cc1 (stereo not drawn) — membrane protection (human erythrocytes; HRBC membrane stabilization; concentration not given): 78.2%
CC1=[N+]2N=C(c3ccccc3)[O][Pd-2]2([Cl])[O+]=C2Oc3ccccc3C=C21 (stereo not drawn) — necrotic cells (HeLa; annexin V/PI flow cytometry; IC50, 24 h; relative to: untreated): 3.3 fold
COc1c(CC=C(C)C)c(O)cc2c1-c1oc3c(CC=C(C)C)c(O)ccc3c1CO2 — glucose consumption (3T3-L1 adipocytes; activator; up to 100 µM): inactive
O=C(O)c1ccc(/C=C2\SC(=S)N(Cc3cccc(C(F)(F)F)c3)C2=O)cc1 — AIM2 inflammasome activation (LPS-primed mouse BMDM; item: IL-1β; concentration not given, added: poly(dA:dT)): no effect
COc1cc(CNC(=O)C[C@H](C)CCC=C(C)C)ccc1OCc1cn(-c2ccccc2Cl)nn1 — growth percent (K562 leukaemia cells; SRB; 10 µM, 48 h): 44.6%
C[C@H](C(=O)Nc1ccc(Cn2cc(C(F)(F)F)ccc2=O)cc1)N(C)C — inhibition (NIH3T3; cell growth or viability, CCK-8; 500 µM): 37.5%
COc1ccc([C@@H]2CC(=O)c3c(O)cc(O[C@@H]4O[C@H](CO[C@@H]5O[C@@H](C)[C@H](O)[C@@H](O)[C@H]5O)[C@@H](O[C@H]5O[C@H](CO)[C@@H](O)[C@H](O)[C@H]5O)[C@H](O)[C@H]4O)cc3O2)cc1O — invasion (A549; Matrigel Transwell invasion; 50 µg/mL, 48 h): 32.5 ± 4.76%
Cc1ccc(C(C)C)cc1.[Cl-].[Cl][Ru+].[Ru+].c1ccc(-c2cn(CCCCOc3ccccc3-c3nc4ccccc4s3)nn2)nc1 — necrotic cells (MCF7; annexin V/PI flow cytometry; 8 µM, 24 h): 10.5%
CCN(CC)CC(=O)Nc1cccc(-n2cc(-c3ccc4ccc(-c5cn(-c6cccc(NC(=O)CN(CC)CC)c6)nn5)cc4c3)nn2)c1 — mRNA level (RCC4; qRT-PCR, item: HIF-1α; 1 x IC50; relative to: untreated): 29.2%
CO[C@H]1N(OC)c2ccccc2[C@@]12CN=C(Nc1cc(C(F)(F)F)cc(C(F)(F)F)c1)S2 (relative stereo) — G2/M phase cells (HCT-116; PI flow cytometry; 40 µM, 72 h): 5.07 ± 2.52%
C=C(C)[C@@H]1CC[C@]2(C(=O)OCO/N=[N+](\[O-])N3CCCC3)CC[C@]3(C)[C@H](CC[C@@H]4[C@@]5(C)CC[C@H](OC(C)=O)C(C)(C)[C@@H]5CC[C@]43C)[C@@H]12 — early apoptotic cells (B16-F10; Annexin V/PI flow cytometry; 0.50 µM, 36 h): 6.39%
COc1cc(CNC(=O)C[C@H](C)CCC=C(C)C)ccc1OCc1cn(-c2ccccc2)nn1 — growth percent (UACC-62 melanoma cells; SRB; 10 µM, 48 h): 64.2%
COc1cc2c(OC3OCC(OC)C(OC)C3OC(=O)c3ccc(Br)cc3)c3c(c(-c4ccc5c(c4)OCO5)c2cc1OC)C(=O)OC3 (stereo not drawn) — mRNA level (FaDu; RT-qPCR, item: fibronectin; concentration not given, 36 h): no effect
O=C(N1CCCC1)n1cc(-c2ccc(-c3ccccc3)cc2)nn1 — SILAC ratio (mouse T-cells; N-terminal labeled proteins, N-terminal enrichment proteomics, item: TMSB4X; 1 nM, 6 h; relative to: DMSO): 0.89 ± 0.17
C1=[N+]2CCCC[N+]3=Cc4ccc5[n]4[Au-]23[n]2c1ccc2-c1nc2ccccc2nc1-5.F[P-](F)(F)(F)(F)F — GI50 (renal cancer cell lines; NCI60 panel mean): 14 µM
CCC(=C(c1ccc(Cl)cc1)c1ccc(OCCCN(C)C)cc1)c1ccc(OC)cc1 — GI50 (SNB-75; cell growth or viability, SRB): 6.02 µM
Cc1cc([C@H](C(=O)N2C[C@H](O)C[C@H]2C(=O)N[C@@H](CC(=O)N2CCC(N3CCC(C#Cc4ccc(C(=O)N[C@H]5C(C)(C)[C@H](Oc6ccc(C#N)c(Cl)c6)C5(C)C)cc4)CC3)CC2)c2ccc(-c3scnc3C)cc2)C(C)C)on1 — effective concentration (MDA-MB-453; inhibition of increase, item: c-Myc; 24 h, added: R1881): 1 nM
CC(C)=CCc1cc2c(cc1O)OCc1c-2oc2c(CC=C(C)C)c(O)ccc12 — glucose consumption (3T3-L1 adipocytes; activator; up to 100 µM): inactive
COc1cc(CNC(=O)C[C@H](C)CCC=C(C)C)ccc1OCc1cn(-c2ccc(Br)cc2)nn1 — growth percent (UACC-62 melanoma cells; SRB; 10 µM, 48 h): 65.2%
O=C(O)CCNC(=O)[C@H](Cc1c[nH]cn1)NC(=O)[C@H](Cc1c[nH]cn1)NC(=O)CCNC(=O)[C@@H]1CCCN1 — viability (HT-29; LDH release; 10 µg/mL, 6 h, 1% FBS): 83.4%
